Assay results pooled from the literature.
Numbered parts are unrelated; each lists some results of a single study.

Sample 1
Target: RING finger protein unkempt homolog, zinc fingers 1-6, SBP tag (UNK, Homo sapiens, UniProt Q9C0B0, residues 30-357)
Chain of UniProt Q9C0B0 (30-357, looked up): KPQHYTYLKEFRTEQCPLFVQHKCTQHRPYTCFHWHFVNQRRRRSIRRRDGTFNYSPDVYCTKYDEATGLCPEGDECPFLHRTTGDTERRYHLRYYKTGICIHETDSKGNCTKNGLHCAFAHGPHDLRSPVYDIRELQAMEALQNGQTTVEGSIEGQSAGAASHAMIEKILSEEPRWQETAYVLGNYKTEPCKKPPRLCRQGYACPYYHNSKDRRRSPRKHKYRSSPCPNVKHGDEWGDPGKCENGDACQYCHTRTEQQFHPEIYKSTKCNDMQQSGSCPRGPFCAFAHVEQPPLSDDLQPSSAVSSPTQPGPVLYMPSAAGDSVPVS
Method: RNA Bind-n-Seq
Molecule type: RNA
Medium: in vitro
Tested at: 100 nM
Setting: RNA with constant flanks, vertebrate orthologous sites, ends assumed
Baseline: input RNA pool
Reading: higher = stronger binding
Measurement: bound/input enrichment
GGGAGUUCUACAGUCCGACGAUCCCGCCGAUUCACUCAUUGGGAGAGCGGCACAUAUAGCUGUUCUUGACUCGGAAAUAUUUUUAGAGAAAUUCUUUCUGGUUGCUGCCCUCAAAUAUUUCCAGUAGAAUAAAAGCAUUGUUACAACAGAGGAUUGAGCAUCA: 0.526 ratio
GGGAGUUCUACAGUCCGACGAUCUGGAGGGAGGUUUACUUCCUUCAACUUCAAUUUUUCAGGUUGUAGCUGAUUUUUUUUUUCCUCCUUUCUCUUCGCUGUUCUUUUGCUUCCUUUCUGUCUCCCAGACUUCAAAUACACAAGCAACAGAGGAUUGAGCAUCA: 0.405 ratio
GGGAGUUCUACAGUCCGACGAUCUAAUGUGUUUUUAUUUAUUAAAGACAAUUUUGUGCUAAGGACUGUGUUAGAUUUAUAUAUUAGUGAAUUGAUUCCUCUUUGUUGUGUUACUUUUGUUGUUGAAAAUAAAAAGAACUUUGACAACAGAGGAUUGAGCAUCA: 2.16 ratio
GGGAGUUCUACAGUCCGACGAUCUUUUAUUGAUCAGGUCUGUAAAUGUGUACUAAAACAAUCAGAGUUUAUUUAUAAAUAGGAUAGUUUAUUUAAAGAGGUGUUUUCCUCCCUGAUAUCAUGGUAUGCGUAAUUCUUUGCUACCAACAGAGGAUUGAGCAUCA: 0.372 ratio
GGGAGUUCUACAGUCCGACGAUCGUGCAAGGAGAUUAUUCCAACUAGUGAAUUCAUUAACAGUAAGUUGACAGCAAAGGCAAAUCGGCAGCUUCAGGAUCCAUUAGUAAUCAUGACAGGAAACAUCCCAGCAUGGCUGACUGACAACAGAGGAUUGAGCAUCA: 0.503 ratio
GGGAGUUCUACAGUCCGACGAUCUUUAUAAAAUUUGGACCUUGGAGUGGAACCAGGAGCCAGCAAAACAAACUUGUAAAAUUAUAGUAAUAGGCAGGCACAACAGUACUACCACUAGCAGCUGUUAAUUUAUAAAGAGAAAUUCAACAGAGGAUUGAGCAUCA: 1.63 ratio
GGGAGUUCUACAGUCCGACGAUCUUUGGUUCCUUUCUGUUUUGGAGAAUUUAAAAAAAUAAUUAAGAAGUUUGCUCUCCCGAAUAGUGAACGUAACGAAACCGAUCUCGAUGUUGCUAUAGUGACAUGCGAUUCUAUGCGAUUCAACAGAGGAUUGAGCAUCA: 0.262 ratio
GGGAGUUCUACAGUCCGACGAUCCAGCUGAUUCACUCAUUGGCAGAGCUGCACAUAUAGCUGUUCUGGAUUCAGAAAUAUUUUUAGAGAAAUUCUUUCUGGUUGCUGCCCUCAAAUAUUUCCAAUAGAAUUAAAAACAUUGGUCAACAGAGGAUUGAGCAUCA: 0.926 ratio

Sample 2
Target: Histone acetyltransferase KAT6A, winged helix 2, GST fusion (KAT6A, Homo sapiens, UniProt Q92794, residues 85-181)
Method: protein binding microarray
Molecule type: double-stranded DNA, one strand shown
Medium: in vitro
Tested at: not given
Setting: 8-mer, flanks averaged, mean of 2 arrays, mostly near background
Baseline: not given
Reading: higher = stronger binding
Measurement: E-score
Target sequence (chain): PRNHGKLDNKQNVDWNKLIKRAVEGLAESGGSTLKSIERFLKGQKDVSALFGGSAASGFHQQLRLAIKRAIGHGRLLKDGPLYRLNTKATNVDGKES
AGCAAGCG: 0.0716
CAACGCAC: 0.0659
TGATCTAA: 0.161
CGGCCGCA: 0.238
CTTTAGTA: -0.0405
CAACTTCG: -0.0317
CGGGTGCA: 0.0996
CATAGTTC: -0.00615
AGATCATA: 0.107
GCAACTAC: -0.0702
CACGTATC: -0.247
AGATGCCT: -0.00217
CCACTGCC: 0.135
TAGACGGA: -0.0272
TGCTAGCA: 0.0125
CCACAGTA: -0.0447
ATCGCTCC: -0.0295
CGCCTCCG: 0.0181
GAAGGTCC: 0.023
AGACCTTC: -0.131
AATTTGGT: 0.0121
GATGCTGA: -0.0107
ATGTCACC: -0.0617
ATGCTGGA: 0.115
AGGTCGTC: 0.0492

Sample 3
Target: Interferon regulatory factor 5, full length, phosphomimetic (IRF5, Homo sapiens, UniProt Q13568-2, residues 1-514, S451D/S453D/S456D/S462D)
Method: protein-binding microarray
Molecule type: double-stranded DNA, one strand shown
Medium: in vitro
Tested at: 940 nM top
Setting: 60-bp whole probe
Added: salmon DNA 0.4 mg/ml
Baseline: random background probes
Reading: higher = stronger binding
Measurement: fitted relative affinity
Constant ends, left off below: GCCTAGCAC … GTCTTGATTCGCTTGACGCTGCTG
TTAGTACTGGGGTATCGATTAGTGCTA: 2.96 z-score
TTAGGACTGGGTCTCGGTGAGTGCTAG: 0.76 z-score
TTAGGACTGGACTATCCGTTAGTGCTA: -0.432 z-score
AAGCCAGCCAAGGCCACTGTGTGCTAG: -0.778 z-score
CCTAGGGGCGGGGCCAAATGGTGCTAG: 1.41 z-score
GACGGACTGGGTCTCGGGGCGTGCTAG: -0.436 z-score
GGTCTTCTGGGCTGTTTGATCGTGCTA: 0.0317 z-score
GACGGTATGCTACTGCTGACGTGCTAG: -0.489 z-score
GACGGACTGGTTTTCGGGACGTGCTAG: 0.253 z-score
TGTTATTAAAATTTCATGAAGTGCTAG: 0.356 z-score
GACGATTTCGGGAATCGAGACGTGCTA: 0.491 z-score
TTAGAACTGGGGTATCGCTTAGTGCTA: 1.23 z-score
CACCCACTCTTTCCTCACCATGTGCTA: 1.74 z-score
TTAGGTCTCCTTTTCCTTTAGTGCTAG: 0.628 z-score
AACGATGCAAGTGCCCTTCGGTGCTAG: -0.407 z-score
TTAGGTTTCGACACTGCGTTAGTGCTA: 8.01 z-score
GACGGTCTCCATCTCCTGACGTGCTAG: 0.432 z-score
TCATTTCTCAGTTTATTACTGTGCTAG: 2.14 z-score
TTAGGTTTCGGATTTCGGTTAGTGCTA: 8.22 z-score

Sample 4
Target: Sox-I, HMG box (Salpingoeca helianthica)
Method: Spec-seq
Molecule type: double-stranded DNA, one strand shown
Medium: in vitro
Tested at: not given
Setting: whole probe, mean of replicates
Baseline: not given
Reading: lower = stronger binding
Measurement: relative binding energy
Constant ends, left off below: GAGTCGTCTCGTCAGCAC … CCGTAGAGCACTCAGGTC
Construct (chain): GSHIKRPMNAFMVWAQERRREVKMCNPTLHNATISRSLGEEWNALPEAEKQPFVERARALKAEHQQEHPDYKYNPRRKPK
TAATGTT: -0.00576 ln ratio
CATTCTT: -0.786 ln ratio
AGGCGTT: 0.778 ln ratio
CAGCGTT: 1.12 ln ratio
CATTCCT: 0.61 ln ratio
CTCTGTT: -0.76 ln ratio
TGCAGTT: 0.284 ln ratio
CATGCAC: 0.756 ln ratio
CATGAAG: 0.956 ln ratio
GGTTGTT: -0.099 ln ratio
CATCCAT: 0.509 ln ratio
CATAGGT: 0.387 ln ratio
CATTTAC: 0.591 ln ratio
CATACCG: 0.556 ln ratio
CCGAGTT: 0.919 ln ratio

Excerpt of the above (sample 4):
CATTCCT: 0.61 ln ratio
CTCTGTT: -0.76 ln ratio
TGCAGTT: 0.284 ln ratio
CATGCAC: 0.756 ln ratio
CATGAAG: 0.956 ln ratio
GGTTGTT: -0.099 ln ratio
CATCCAT: 0.509 ln ratio
CATAGGT: 0.387 ln ratio
CATTTAC: 0.591 ln ratio
CATACCG: 0.556 ln ratio
CCGAGTT: 0.919 ln ratio
